Measurements pooled from the literature.
Compare with care: the assays were run in different laboratories.
CDK2: Cyclin-dependent kinase 2 (CDK2, Homo sapiens, UniProt P24941)

For `CC1(C)S[C@@H]2[C@H](NC(=O)[C@H](N)c3ccccc3)C(=O)N2[C@H]1C(=O)O`, the MIC was greater than 16 µg/mL (Salmonella enterica serovar Uganda; broth microdilution; clinical isolate RKI-No 206/14).
`Cn1cc(-c2ccc(-c3cncc(Cl)c3N3CCC4(CCNC4=O)CC3)cc2)cn1`: “fold change in expression” 2.2 (COLO 205; microarray, measured: FSCN1; concentration not given, 6 h, gene set Fascin; baseline: untreated cells).
With `CN(C/C=C/C#CC(C)(C)C)Cc1cccc2ccccc12` the MIC was 16 µg/mL (Aspergillus fumigatus; broth microdilution; BNCC 122691).
`CC(=O)NC[C@H]1CN(c2ccc(N3CCOCC3)c(F)c2)C(=O)O1` gave an MIC of 2.96 µM (Enterococcus faecium; NR-31909).
The Kd of `CN1CCN(C(=O)CN(c2cc(C(F)(F)F)ccc2Cl)S(=O)(=O)c2ccccc2)CC1` is reported as greater than 100 µM (CDK2; binding).
The MIC of `O=C(c1cc(Cl)c(Cl)[nH]1)c1c(O)ccc(Cc2ccc(O)c(C(=O)c3cc(Cl)c(Cl)[nH]3)c2O)c1O` is reported as no less than 32 µg/mL (clinically relevant pathogen panel; broth microdilution; range over all pathogens).
The MIC of `CC(C)CC1NC(=O)C(C(=O)NC(C(=O)NC2C(=O)N3C2SC(C)(C)C3C(=O)O)c2ccccc2)=C1O` (stereo not shown) is reported as 6.25 µg/mL (Escherichia coli; broth microdilution; ATCC 25922 wild type; no clavulanic acid).
`O=Cc1c(O)cc(C(F)(F)F)cc1C(F)(F)F` — result for “pseudo-first-order rate constant”: 0 h⁻¹ (reaction with N-acetyl-lysine, HPLC-MS; pH 10.2, added: N-α-acetyl-lysine).
With `CNC(C)C1CCC(N)C(OC2C(N)CC(N)C(OC3OCC(C)(O)C(NC)C3O)C2O)O1` (stereo not shown) the MIC was 2 µg/mL (Pseudomonas aeruginosa; clinical isolate RKI-No_502/15).
`C=C[C@]1(C)C[C@@H](OC(=O)CSCCN(CC)CC)[C@]2(C)[C@H](C)CC[C@]3(CCC(=O)[C@H]32)[C@@H](C)[C@@H]1O` has an MIC of 0.00781 µg/mL (Mycoplasma gallisepticum; broth microdilution; S6 (ATCC 15302)).
The MIC of `Cc1c(CN(C)C(=O)/C=C/c2cnc3c(c2)CC(NC(=O)OC(C)(C)C)C(=O)N3)oc2ccccc12` (stereo not shown) is reported as greater than 32 µg/mL (Acinetobacter baumannii; broth microdilution; AR-0299).
`CC(C)C[C@@H]1NC(=O)[C@@H](Cc2ccccc2)NC(=O)[C@H](CCN)NC(=O)[C@@H](NC(=O)[C@H](CCN)NC(=O)[C@@H](N)[C@@H](C)O)CCNC(=O)[C@H]([C@@H](C)O)NC(=O)[C@H](CCN)NC(=O)[C@H](CCN)NC1=O` gave an MIC of greater than 200 µg/mL (Escherichia coli; ATCC 25922; compound alone).
`Cc1ccc(CCC(=O)Nc2nnc(S(N)(=O)=O)s2)cc1` has an MIC of 0.184 µM (Enterococcus faecium; HM-970).
For `C[C@@H](O)[C@H]1C(=O)N2C(C(=O)O)=C(S[C@@H]3CN[C@H](C(=O)N(C)C)C3)[C@H](C)[C@H]12`, the MIC was no more than 0.5 µg/mL (Salmonella enterica serovar Uganda; broth microdilution; clinical isolate RKI-No 206/14).
The Kd of `COC(=O)c1ccccc1NC(=O)CSc1nnc(-c2ccc(OC)cc2)n1C` is reported as greater than 100 µM (CDK2; binding).
`N=C(N)c1ccc(OCc2cccc(COc3ccc(C(=N)N)cc3)c2)cc1` gave an MIC of 50 µg/mL (Escherichia coli; BW25113; in combination, lowest-FICI combination, added: vancomycin).

For quick reference, copied from above:
`O=Cc1c(O)cc(C(F)(F)F)cc1C(F)(F)F` — result for “pseudo-first-order rate constant”: 0 h⁻¹ (reaction with N-acetyl-lysine, HPLC-MS; pH 10.2, added: N-α-acetyl-lysine).
With `CNC(C)C1CCC(N)C(OC2C(N)CC(N)C(OC3OCC(C)(O)C(NC)C3O)C2O)O1` (stereo not shown) the MIC was 2 µg/mL (Pseudomonas aeruginosa; clinical isolate RKI-No_502/15).
